Measurements from different studies.
Numbered parts are unrelated; each lists some results of a single study. Several values in a cell are separate wells, animals, samples, runs or records.
UniProt P29317, sequence (whole entry, looked up): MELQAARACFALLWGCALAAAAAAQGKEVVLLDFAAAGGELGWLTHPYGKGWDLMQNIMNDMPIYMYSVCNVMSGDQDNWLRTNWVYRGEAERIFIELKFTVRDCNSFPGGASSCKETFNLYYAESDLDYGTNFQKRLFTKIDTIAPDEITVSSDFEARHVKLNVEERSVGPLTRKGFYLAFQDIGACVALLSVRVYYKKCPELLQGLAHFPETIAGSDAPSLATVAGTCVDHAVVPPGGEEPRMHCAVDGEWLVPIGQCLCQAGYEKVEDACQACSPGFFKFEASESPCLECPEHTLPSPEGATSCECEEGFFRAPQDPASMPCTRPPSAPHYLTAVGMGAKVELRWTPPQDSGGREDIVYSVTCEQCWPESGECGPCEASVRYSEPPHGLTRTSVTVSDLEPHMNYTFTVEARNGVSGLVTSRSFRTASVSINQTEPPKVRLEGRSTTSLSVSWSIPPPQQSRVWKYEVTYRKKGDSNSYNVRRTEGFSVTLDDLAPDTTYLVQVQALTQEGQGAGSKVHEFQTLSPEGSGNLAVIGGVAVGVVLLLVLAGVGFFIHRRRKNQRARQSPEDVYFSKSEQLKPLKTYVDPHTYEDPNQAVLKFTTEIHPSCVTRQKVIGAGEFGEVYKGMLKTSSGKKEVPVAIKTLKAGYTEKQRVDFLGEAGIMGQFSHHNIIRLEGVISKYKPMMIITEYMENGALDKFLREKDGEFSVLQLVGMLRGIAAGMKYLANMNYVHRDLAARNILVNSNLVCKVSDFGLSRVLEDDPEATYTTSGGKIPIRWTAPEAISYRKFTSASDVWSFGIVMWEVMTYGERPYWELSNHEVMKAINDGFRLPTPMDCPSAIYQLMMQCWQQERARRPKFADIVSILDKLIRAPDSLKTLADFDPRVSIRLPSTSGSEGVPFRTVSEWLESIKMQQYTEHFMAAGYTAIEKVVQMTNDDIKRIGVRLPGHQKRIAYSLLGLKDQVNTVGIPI
UniProt P30530, sequence (whole entry, looked up): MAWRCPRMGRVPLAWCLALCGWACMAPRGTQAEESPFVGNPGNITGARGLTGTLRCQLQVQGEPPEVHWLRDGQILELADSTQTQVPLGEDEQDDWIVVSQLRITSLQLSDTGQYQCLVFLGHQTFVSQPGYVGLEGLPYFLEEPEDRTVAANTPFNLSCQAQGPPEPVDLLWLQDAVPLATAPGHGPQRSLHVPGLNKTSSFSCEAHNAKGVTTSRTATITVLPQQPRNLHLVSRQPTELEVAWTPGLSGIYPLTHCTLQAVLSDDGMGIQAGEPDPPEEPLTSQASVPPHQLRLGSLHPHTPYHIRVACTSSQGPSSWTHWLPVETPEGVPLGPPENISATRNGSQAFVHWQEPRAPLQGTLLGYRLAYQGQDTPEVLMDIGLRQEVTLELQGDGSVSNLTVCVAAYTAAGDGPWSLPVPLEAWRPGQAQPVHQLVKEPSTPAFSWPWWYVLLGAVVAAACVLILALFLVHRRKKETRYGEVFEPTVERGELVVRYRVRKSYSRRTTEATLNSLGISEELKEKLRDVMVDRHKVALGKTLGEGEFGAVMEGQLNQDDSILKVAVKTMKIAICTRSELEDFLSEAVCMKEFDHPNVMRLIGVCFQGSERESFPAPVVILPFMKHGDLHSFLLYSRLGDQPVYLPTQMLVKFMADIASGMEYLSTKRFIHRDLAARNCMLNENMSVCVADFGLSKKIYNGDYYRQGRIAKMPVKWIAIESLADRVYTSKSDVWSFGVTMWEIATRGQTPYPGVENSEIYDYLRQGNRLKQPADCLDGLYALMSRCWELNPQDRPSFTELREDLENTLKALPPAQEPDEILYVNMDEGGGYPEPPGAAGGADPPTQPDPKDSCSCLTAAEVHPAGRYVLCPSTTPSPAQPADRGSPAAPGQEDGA
UniProt P54760, sequence (whole entry, looked up): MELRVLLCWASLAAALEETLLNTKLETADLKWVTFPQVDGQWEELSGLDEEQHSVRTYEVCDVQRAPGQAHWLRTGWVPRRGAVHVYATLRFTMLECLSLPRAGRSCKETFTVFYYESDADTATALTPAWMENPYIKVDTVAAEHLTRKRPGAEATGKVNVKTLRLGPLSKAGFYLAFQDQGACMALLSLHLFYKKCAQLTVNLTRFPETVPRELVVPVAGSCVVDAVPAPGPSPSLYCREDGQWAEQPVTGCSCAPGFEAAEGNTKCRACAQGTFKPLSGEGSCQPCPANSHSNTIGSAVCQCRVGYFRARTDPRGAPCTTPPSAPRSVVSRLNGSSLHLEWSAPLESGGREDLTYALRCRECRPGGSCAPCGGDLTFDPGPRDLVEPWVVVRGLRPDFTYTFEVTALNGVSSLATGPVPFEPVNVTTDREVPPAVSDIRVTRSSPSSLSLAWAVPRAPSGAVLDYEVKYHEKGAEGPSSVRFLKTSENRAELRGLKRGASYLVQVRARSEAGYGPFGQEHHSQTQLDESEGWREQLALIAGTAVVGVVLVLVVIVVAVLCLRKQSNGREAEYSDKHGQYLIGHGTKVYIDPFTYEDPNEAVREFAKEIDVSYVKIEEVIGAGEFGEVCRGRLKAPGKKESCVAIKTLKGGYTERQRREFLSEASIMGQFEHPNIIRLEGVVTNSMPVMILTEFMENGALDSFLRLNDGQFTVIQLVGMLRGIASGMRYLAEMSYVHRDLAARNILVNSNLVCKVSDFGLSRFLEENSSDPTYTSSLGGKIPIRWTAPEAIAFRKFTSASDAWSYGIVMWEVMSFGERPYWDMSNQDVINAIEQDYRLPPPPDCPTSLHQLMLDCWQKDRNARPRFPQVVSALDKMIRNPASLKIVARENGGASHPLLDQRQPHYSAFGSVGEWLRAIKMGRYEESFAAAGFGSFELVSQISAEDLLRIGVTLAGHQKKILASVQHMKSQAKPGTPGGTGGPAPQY
UniProt P37173, sequence (whole entry, looked up): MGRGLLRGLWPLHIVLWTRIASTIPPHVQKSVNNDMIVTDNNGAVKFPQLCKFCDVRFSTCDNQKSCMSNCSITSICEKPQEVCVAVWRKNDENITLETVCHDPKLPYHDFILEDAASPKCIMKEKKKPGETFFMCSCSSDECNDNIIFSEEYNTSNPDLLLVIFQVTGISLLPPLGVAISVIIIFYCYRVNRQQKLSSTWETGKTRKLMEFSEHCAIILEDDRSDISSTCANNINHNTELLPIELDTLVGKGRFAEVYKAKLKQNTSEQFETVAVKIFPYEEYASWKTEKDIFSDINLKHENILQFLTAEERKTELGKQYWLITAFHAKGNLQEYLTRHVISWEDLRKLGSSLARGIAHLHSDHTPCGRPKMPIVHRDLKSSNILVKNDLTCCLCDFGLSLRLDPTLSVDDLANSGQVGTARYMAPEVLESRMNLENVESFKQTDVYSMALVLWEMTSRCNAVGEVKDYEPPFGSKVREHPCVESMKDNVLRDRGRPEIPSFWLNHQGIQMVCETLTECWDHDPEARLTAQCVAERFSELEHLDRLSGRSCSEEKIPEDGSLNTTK

Study 1
Organism: Sarcocystis neurona
Observed: parasite growth
Tested at: 10 µM
Time: 96 h
Notes: first screen
Baseline: untreated
Structure (SMILES) | log2 fold change
CCOC(=O)C1=C(C)NC(C)=C(C(=O)OC)C1c1cccc([N+](=O)[O-])c1 (stereo not drawn) | -1.11
Cc1c(OCC(F)(F)F)ccnc1C[S+]([O-])c1nc2ccccc2[nH]1 (stereo not drawn) | 0.56
CN(C)CCCN1c2ccccc2Sc2ccc(Cl)cc21 | 0.00388
CCCCN1CCCC1CNC(=O)c1cc(C#N)c2ccccc2c1OC (stereo not drawn) | -0.27
CCC1=C(C)CN(C(=O)NCCc2ccc(S(=O)(=O)NC(=O)N[C@H]3CC[C@H](C)CC3)cc2)C1=O | 0.2
COc1cc(C)c(/C=C/C(C)=C/C=C/C(C)=C/C(=O)O)c(C)c1C | 0.47
COc1ccc(OC)c(C(O)CNC(=O)CN)c1 (stereo not drawn) | 0.24
O=C(O[C@H]1[C@H](Oc2ccccc2COC(=O)C2(O)C=CCCC2=O)O[C@H](CO)[C@@H](O)[C@@H]1O)c1ccccc1 (stereo partly drawn) | 0.17
C[n+]1ccccc1/C=N/O | 0.35

Study 2
Structure (SMILES): CCS(=O)(=O)c1cc2cc(C[C@@](O)(CC(C)(C)c3ccc(F)cc3C(N)=O)C(F)(F)F)[nH]c2cn1
Observed: cell-free assay
Technique: competition with immobilised ligand
Tested at: 1 µM
target | remaining binding [%]
TGFBR2 (Homo sapiens, UniProt P37173) | 100
CAMK1 (Homo sapiens, UniProt Q14012) | 57
EPHA2 (Homo sapiens, UniProt P29317) | 67
EPHB6 (Homo sapiens, UniProt O15197) | 100
AXL (Homo sapiens, UniProt P30530) | 100
CIT (Homo sapiens, UniProt O14578) | 96
EPHB4 (Homo sapiens, UniProt P54760) | 100
FLT3 (Homo sapiens, UniProt P36888, F691L/ITD) | 86
SRC (Homo sapiens, UniProt P12931) | 100

Study 3
Cell line: mouse MPNST tumor cells
Technique: high-content immunofluorescence imaging
Item: nuclear SOX9
Tested at: 10 µM
Time: 12 h
Notes: mean of 2 replicates
Baseline: DMSO control
Direction: higher = more nuclear SOX9
SMILES | nuclear SOX9 intensity
CCN(CC)C(=O)c1ccc(Nc2nc(OCC3CCCCC3)c3[nH]cnc3n2)cc1 | 161 % of DMSO
COCCCC/C(=N\OCCN)c1ccc(C(F)(F)F)cc1 | 152 % of DMSO
CCC(C)n1ncn(-c2ccc(N3CCN(c4ccc(OCC5COC(Cn6cncn6)(c6ccc(Cl)cc6Cl)O5)cc4)CC3)cc2)c1=O (stereo not drawn) | 135 % of DMSO
Cc1ccccc1C(=O)c1ccc(Nc2ccc(Br)cc2N)cc1Cl | 99.1 % of DMSO
CCN(CC)CC#CCOC(=O)C(O)(c1ccccc1)C1CCCCC1 (stereo not drawn) | 136 % of DMSO

Mixed results
Structure (SMILES) | test | system | setting | scale | measurement | value
CC(=O)N[C@@H](Cc1c[nH]c2ccccc12)C(=O)N[C@@H](CCC(=O)C=[N+]=[N-])C(=O)OC(C)C | UPLC-MS/MS | EL4 tumor, C57BL/6 CES1-/- mice, tumor | subcutaneous, 0.3 mg/kg DON equivalent daily, 5 days | higher = more metabolite | spermidine level | 4.26e+07 a.u. and 5.48e+07 a.u. and 3.58e+07 a.u. and 4.29e+07 a.u. and 5.39e+07 a.u.

A few entries again (study 2):
target | remaining binding [%]
CIT (Homo sapiens, UniProt O14578) | 96
